Measured values of several laboratories.
Every numbered part comes from another study and shows a few of its results, in no order.

Block 1
Target: Prothrombin, mature alpha-thrombin (F2, Homo sapiens, UniProt P00734)
Technique: aptamer microarray, sandwich
Form: DNA with 2'F-ANA
Medium: in vitro
Concentration: 200 nM
Setting: whole 15-mer aptamer, many near background
With: Cy3 exosite-II aptamer, 400 nM
Direction: higher = stronger binding
`GGTTGGTGTGGTTGG (2'F-ANA at 6 7 15)`: “mean fluorescence intensity” 492 a.u.
`GGTTGGTGTGGTTGG (2'F-ANA at 2 3 4 10 13)` — result for “mean fluorescence intensity”: 233 a.u.
`GGTTGGTGTGGTTGG (2'F-ANA at 2 3 4 5 8 9 13 14)`: “mean fluorescence intensity” 51.3 a.u.
Under “mean fluorescence intensity”, `GGTTGGTGTGGTTGG (2'F-ANA at 6 8 10 14 15)` is recorded as 96.3 a.u.

Block 2
Target: Histone acetyltransferase KAT6A, both winged helices, GST fusion (KAT6A, Homo sapiens, UniProt Q92794, residues 1-181)
Technique: protein binding microarray
Form: double-stranded DNA, one strand shown
Medium: in vitro
Concentration: not given
Setting: 8-mer, flanks averaged, mean of 2 arrays, mostly near background
Reference: not given
Direction: higher = stronger binding
Construct (chain): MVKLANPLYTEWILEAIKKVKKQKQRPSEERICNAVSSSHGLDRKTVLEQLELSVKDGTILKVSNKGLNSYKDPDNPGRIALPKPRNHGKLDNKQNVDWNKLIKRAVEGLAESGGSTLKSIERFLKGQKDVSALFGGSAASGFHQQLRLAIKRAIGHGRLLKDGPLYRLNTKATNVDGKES
The E-score of `ACCCCCGA` is reported as -0.0166.
The E-score of `GTCTGCGA` is reported as 0.0105.
With `GATATGAA` the E-score was 0.0035.
With `CTCTGGGA` the E-score was -0.112.
With `GACTTTTA` the E-score was -0.0376.
`CTGTTGTC` has an E-score of -0.0469.

Block 3
Target: Sal-like protein 4, full length isoform A (SALL4, Homo sapiens, UniProt Q9UJQ4, residues 1-1053)
Sequence of UniProt Q9UJQ4 (whole entry, looked up): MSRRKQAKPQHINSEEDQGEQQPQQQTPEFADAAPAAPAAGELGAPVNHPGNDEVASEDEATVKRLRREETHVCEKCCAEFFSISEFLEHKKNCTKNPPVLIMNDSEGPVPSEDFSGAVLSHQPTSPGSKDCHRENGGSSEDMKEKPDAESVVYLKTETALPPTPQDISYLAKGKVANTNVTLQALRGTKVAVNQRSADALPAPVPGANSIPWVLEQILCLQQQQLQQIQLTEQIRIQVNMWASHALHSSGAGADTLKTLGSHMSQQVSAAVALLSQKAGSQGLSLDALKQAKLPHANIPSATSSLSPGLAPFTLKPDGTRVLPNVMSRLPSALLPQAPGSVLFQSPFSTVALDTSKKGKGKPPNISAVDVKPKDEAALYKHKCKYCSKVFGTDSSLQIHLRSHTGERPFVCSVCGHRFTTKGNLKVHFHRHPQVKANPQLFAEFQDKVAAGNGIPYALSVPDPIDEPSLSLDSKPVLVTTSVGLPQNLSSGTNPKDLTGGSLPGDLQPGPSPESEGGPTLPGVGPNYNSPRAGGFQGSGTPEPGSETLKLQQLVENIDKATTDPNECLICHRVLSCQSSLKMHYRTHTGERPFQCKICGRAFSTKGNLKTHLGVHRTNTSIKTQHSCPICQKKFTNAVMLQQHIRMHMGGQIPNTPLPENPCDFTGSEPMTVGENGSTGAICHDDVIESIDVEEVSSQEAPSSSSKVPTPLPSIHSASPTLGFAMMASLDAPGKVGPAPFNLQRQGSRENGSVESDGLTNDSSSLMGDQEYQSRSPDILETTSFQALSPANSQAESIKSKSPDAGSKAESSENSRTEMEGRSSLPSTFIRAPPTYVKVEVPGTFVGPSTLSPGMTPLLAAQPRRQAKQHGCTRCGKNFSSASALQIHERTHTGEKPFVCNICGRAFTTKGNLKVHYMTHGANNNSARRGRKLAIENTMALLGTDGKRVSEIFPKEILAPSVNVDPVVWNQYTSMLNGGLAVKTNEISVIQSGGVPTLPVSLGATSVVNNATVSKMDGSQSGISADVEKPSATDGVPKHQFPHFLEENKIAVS
Technique: universal PBM
Form: double-stranded DNA, one strand shown
Medium: in vitro
Concentration: 600 nM
Setting: 8-mer, flanks averaged, mean of replicates
Direction: higher = stronger binding
The E-score of `ACTGTTAG` is reported as 0.0196.
With `GAGTTTAC` the E-score was 0.0734.
The E-score of `GTCCGATA` is reported as 0.0219.
`AGTATTAC` gave an E-score of 0.264.
For `AAGAATCG`, the E-score was 0.073.
With `CATGCGTA` the E-score was 0.161.

Single results of other studies
With `PhoQ, residues 284 288 289 292 302 303 SLGVVW` the fold induction was 5.45 (PhoP, residues 12 14 15 18 19 LHSVW (Escherichia coli, UniProt P23836); Sort-seq, measured: YFP reporter; E. coli; PhoQ-PhoP variant library, with: 10 µM Mg2+; reference: high Mg2+ state, higher = stronger signaling).

Excerpt of the above (block 3):
The E-score of `ACTGTTAG` is reported as 0.0196.
The E-score of `GTCCGATA` is reported as 0.0219.
